Assay results collected from several papers.
Every numbered part comes from another study and shows a few of its results, in no order.

Study 1 — method: RNA Bind-n-Seq; form: RNA; medium: in vitro; concentration: 200 nM; setting: whole 134-nt RNA, ends assumed; added: 150 mM KCl; baseline: input library; direction: higher = stronger binding
Target: Fragile X messenger ribonucleoprotein 1, C-terminal low-complexity region (Fmr1, Mus musculus, UniProt P35922)
All sequences stand within: GGGAGUUCUACAGUCCGACGAUC … UGGAAUUCUCGGGUGUCAAGG
Sequence | log2 enrichment
CAAGUCCUGUGCUACACAUCGUAUGUACCGAAUCGGAAAAAGGAAAAAAAGGUGGAAAGUAUUAUGUUACGCCGUUCGGAUCUGCACUUC | -0.84
UGGGAGGUGGAUUUUGUUUAUUUUUUUAGCUCAUUUCCAGGGGUGGGAAUUUUUUUUUGAUAUGUGUCAUGAAUAAAGUUGUUUUUGAAA | 0.171
UUCCUCAAGUCCUGUGCUACACAUCGUAUGUACCGAAUCGGAGGAGGUGGAAAGUAUUAUGUUACGCCGUUCGGAUCUGCACUUCCAGCA | -0.912
UCACUUUAGAGGAGGAUCUGAUGGAUAUGGCAGUGGACGUGGAUUUGGGGAUGGCUAUAAUGGGUAUGGAGGAGGACCUGGAGGUGGCAA | 0.317
AGUCCUGUGCUACACAUCGUAUGUACCGAAUCGGGUUUUUUUGGGAAAAAGGGAGGGAAAGUAUUAUGUUACGCCGUUCGGAUCUGCACU | 0.479
CAAGUCCUGUGCUACACAUCGUAUGUACCGAAUCGGGGCCCGGGGCCCGGCCCGGGAAAGUAUUAUGUUACGCCGUUCGGAUCUGCACUU | -0.549
CAAGUCCUGUGCUACACAUCGUAUGUACCGAAUCGGGGAAAGGGGAAAGGGAAAGGAAAGUAUUAUGUUACGCCGUUCGGAUCUGCACUU | 0.113
CACAGACAACACGCACCCACACAGACACAGAGGGAAGGGGUUGGCAUGGGGACAGGGUGCACAGCAGGGCGGGGUAGGACCCCAGCCCCU | 1.3
UGGGAGGUGGAUUUUGUUUAUUUCUUUAGCUCAUUUCCAGGGGUGGGAAUUUUUUUUUAAUAUGUGUCAUGAAUAAAGUUGUUUUUGAAA | 0.272
UGGCCCUGGUGGCAUGCGGGGAGGAAGAGGUGGCCUCAUGGAUCGUGGUGGUCCCGCUGGAAUGUUCAGAGGUGGCCGUGGUGGAGACAG | -0.31

Study 2 — method: RNA Bind-n-Seq; form: RNA; medium: in vitro; concentration: 365 nM; baseline: no-protein control; direction: higher = stronger binding
Target: RNA binding protein fox-1 homolog 2, RRM domain, GST-SBP tag (RBFOX2, Homo sapiens, UniProt O43251-10, residues 100-194)
Setting: natural RNA segment, single round, ends assumed
All sequences stand within: GGGAGUUCUACAGUCCGACGAUC … UGGAAUUCUCGGGUGCCAA
Construct (chain): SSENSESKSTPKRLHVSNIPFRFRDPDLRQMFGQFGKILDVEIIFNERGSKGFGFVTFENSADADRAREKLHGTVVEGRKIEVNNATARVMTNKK
Sequence | RBNS enrichment (R)
AUGCUGGACAAAGAUGAAAGCGACCUUCAAGUCUCCCCCCAAGAUGGAACACUCAGUGCCGUAGCCCAGGAAGGACUUGCGGUUUCUGAUAGUUCUGAAGGCAUGAGCAA | 0.556
CUUCCUUCCCCCUUUAACUGAGUCUGCUGUUCAGUUAAGCCUUUAUUUCCUCUCCAGUACCCAUUUCCAAAGAGAAAGAGUGAAGUACUUUGAAGUCUGUACUUGAAAUC | 0.927
CCCUUCCAUCCCCAUGGGCUUGACUCUCAACCUGUUACUGUAAACUGCGAUCCUUCCCACCGUCAGCCUUUGUUUCUCAUCCUCACCUCCAAAGAUGGGAUUAUUAAUCC | 1.1
ACUUGCCUCCUCUUGUUUACUGCCUUGUAUUGUAGUUAUGUGUGUAUAUGUCUGUCUUUCUCAUUAGAUUAUACGCUCCUUGUGGGCAGGGUCUGUCUUUUUCACCUUUG | 0.697
CCGCCAGGAGCUCAGGAAGGAUACAGCCACUGUCGCAGGGGAAAGUGUUUGCUUCCCGUGGAGCCAAGCGCCCAAGACUCUCCGUAUCCUUCACCCUGACAGUUUAACUU | 0.26
UACCAUACAACAAAUAACACCAGGAAACUCUGGAAUGAACAGUAUCACAUUCUAGGAAGCAAUGGCAGGUGACAUCACUAUUAUAAUAGGAACAAUGCAUUCUAAUGGUA | 0.486
UUCUCGGUCCUCACCAGCCCAUCACUUAUAGUGGGCUCAUCAGGAGGAGCAGGGGAGGAGGACAGAGGCCCCGCUGCCCGCUGCCUCCUUGGUCUCUAGAGGUAUUGAGA | 0.63
AAAGAUUUUUGUUAAGCUCAGGAUUUUAAAUUACACAGUUCACAAACAGUAAAGGCCAUGUGAAGAGAAUUAUUACAUCUUUAUUAACCUCAGCAUUUACUUUGUUUCUU | 0.561
UUAAUUCCUAUCUGCUUCCUAGCUGAUAAAGCUUAGAAAAGGCAGUUAUUCCUUCUUUCCAACCAGCUUUGCUCGAGUUAGAAUUUUGUUAUUUUCAAAUAAAAAAUAGU | 0.362
AUUGUGUUCCUUCUACAAGUACAGAGUGAAUGAGCAUCCUAGAGAAACUGUCUGGUGUUGGGAAGGGAUGAGUUCUUGUAAAUCUGUAAAUAGCUUCAAUAAGAUGUAAA | 0.834
UGCUAUUUUCAUUAUACACUAUGAGGUAAAAUGUAAUAACAAAAGAGAGAGAAGUACCACUGUGGCUAGAUAUAUACACACACAUAUAUAUAUGGAUGGAUGUAAUAUAU | 0.374
GCACUUGAAGGAAAAGGCCUCUGCUUACAUCACCCUGACUAGGCCCGGCUCUGCUUCCCCAGGAUCUUUGGGUGGUGCUAUCUCCUGCCUCUUGGAGCUCCUGGCGCUCC | 0.371

Study 3 — method: protein binding microarray; form: double-stranded DNA, one strand shown; medium: in vitro; concentration: not given; baseline: not given; direction: higher = stronger binding
Target: Histone acetyltransferase KAT6A, both winged helices, GST fusion (KAT6A, Homo sapiens, UniProt Q92794, residues 1-181)
Setting: 8-mer, flanks averaged, mean of 2 arrays, mostly near background
Target sequence (chain): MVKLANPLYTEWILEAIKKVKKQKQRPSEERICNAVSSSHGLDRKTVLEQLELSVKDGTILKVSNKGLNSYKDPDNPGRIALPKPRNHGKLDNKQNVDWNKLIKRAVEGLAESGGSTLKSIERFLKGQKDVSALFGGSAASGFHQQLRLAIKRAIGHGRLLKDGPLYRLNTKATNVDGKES
Sequence | E-score
ATGTTAGG | -0.141
GTTATTAA | 0.125
GCTTTCAA | 0.0842
CCTCCAAG | -0.185
ACTAGTGG | -0.211
GGATAGGA | -0.116
GTTACAAA | -0.0474
GTCGAATA | -0.073
CCCTATCG | -0.0294
CTGTGATC | -0.104
AATTGCAT | -0.105
AAACCTCG | 0.0665
CAGACAAA | -0.134
ATAGGACC | -0.0569
CGCTATAC | 0.191
AATTATAT | -0.0832
ACTTGAGC | -0.143
TATGTGCA | -0.0143
ATGTCAGG | -0.182
GGGCGTCA | 0.0836
TACAGAGA | -0.0635
GGGCAGAC | 0.0774
CATGCAGC | 0.0837
CCACACAG | -0.149
GGGCGCTA | 0.103

Study 4 — method: universal PBM; form: double-stranded DNA, one strand shown; medium: in vitro; concentration: not given; direction: higher = stronger binding
Target: Sal-like protein 4, full length isoform B (SALL4, Homo sapiens, UniProt Q9UJQ4-2, residues 1-616)
Setting: 8-mer, flanks averaged, mean of replicates
Sequence | E-score
GTTTTAGA | 0.0892
ACTTAAAC | 0.0887
AGGTCTGC | -0.133
ACGGCTAT | 0.0496
CACTCCCG | -0.101
ATCTCGGC | -0.178
GGGGACCC | -0.406
CATTATGA | 0.363
GGTCAGAC | -0.216
CCCACTCA | -0.0112
AACGTCAT | 0.295
AAACGCGT | -0.0392
CTCTCAAG | 0.00382
ACCGCCAA | -0.159
AACTCGGT | -0.0506
CATGTGTA | 0.234
GAAGACAA | 0.141
TAACGATA | 0.226
CCTCCGTC | -0.238
ACGCCCAC | -0.17
ATACTAGC | 0.0448

Study 5 — method: protein-binding microarray; form: double-stranded DNA, one strand shown; medium: in vitro; concentration: not given; direction: higher = stronger binding
Target: Max-binding protein MNT, bHLH-zipper, MAX partner unstated (MNT, Homo sapiens, UniProt Q99583, residues 220-300)
Setting: k-mer, scored over probes, only values ≥0.25
Residues (chain): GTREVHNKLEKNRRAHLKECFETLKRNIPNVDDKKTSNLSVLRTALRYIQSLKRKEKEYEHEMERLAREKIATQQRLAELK
Sequence | E-score
ATGCCCCG | 0.261
CGATCACG | 0.277
CGTGCGAC | 0.294
ACCCACCC | 0.364
CATGGCGG | 0.336
AGCCCCAC | 0.336
CTCCATGC | 0.389
ACGCGGGG | 0.376
GTGTCAAC | 0.255
CCCCCGCC | 0.274
ACGTGGCA | 0.456
CTACACGC | 0.4
CCACGCAC | 0.379
CACCCACG | 0.382
ACATGTTC | 0.342
ACACGCGT | 0.46
ACGCGAGG | 0.328
AACATGTT | 0.272
CAGGTGAC | 0.334
ACGTGGAC | 0.448
CACCACGC | 0.429
ATGACACG | 0.4

A few entries again (study 5):
Sequence | E-score
ACGCGGGG | 0.376
GTGTCAAC | 0.255
CCCCCGCC | 0.274
ACGTGGCA | 0.456
CTACACGC | 0.4
CCACGCAC | 0.379
CACCCACG | 0.382
ACATGTTC | 0.342
ACACGCGT | 0.46
ACGCGAGG | 0.328
AACATGTT | 0.272
